Measurements of several laboratories.
Compare with care: the assays were run in different laboratories. ± gives the spread as reported.
PTK6: Protein-tyrosine kinase 6 (PTK6, Homo sapiens, UniProt Q13882)
Chain of UniProt Q13882 (whole entry, looked up): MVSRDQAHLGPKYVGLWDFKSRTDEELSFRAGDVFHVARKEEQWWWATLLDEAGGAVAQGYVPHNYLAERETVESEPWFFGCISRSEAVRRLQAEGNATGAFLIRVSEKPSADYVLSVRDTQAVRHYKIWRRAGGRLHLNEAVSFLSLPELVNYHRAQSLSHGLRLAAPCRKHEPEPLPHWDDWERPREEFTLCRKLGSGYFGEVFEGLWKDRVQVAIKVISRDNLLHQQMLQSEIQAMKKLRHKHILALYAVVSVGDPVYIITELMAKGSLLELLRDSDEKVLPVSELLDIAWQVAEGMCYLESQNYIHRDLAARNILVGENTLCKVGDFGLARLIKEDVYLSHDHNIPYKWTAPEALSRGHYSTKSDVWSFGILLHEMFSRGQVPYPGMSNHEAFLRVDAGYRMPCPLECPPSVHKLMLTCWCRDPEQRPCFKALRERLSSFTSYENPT
Chain of UniProt P11309 (whole entry, looked up): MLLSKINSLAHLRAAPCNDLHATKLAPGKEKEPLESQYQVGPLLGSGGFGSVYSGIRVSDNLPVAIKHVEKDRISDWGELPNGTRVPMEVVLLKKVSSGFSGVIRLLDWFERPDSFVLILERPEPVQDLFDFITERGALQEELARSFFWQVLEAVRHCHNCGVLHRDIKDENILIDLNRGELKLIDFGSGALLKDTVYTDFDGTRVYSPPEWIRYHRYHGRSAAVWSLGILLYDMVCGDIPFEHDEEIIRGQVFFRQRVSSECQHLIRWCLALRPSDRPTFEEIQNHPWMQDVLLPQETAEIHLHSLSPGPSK
Chain of UniProt P23443 (whole entry, looked up): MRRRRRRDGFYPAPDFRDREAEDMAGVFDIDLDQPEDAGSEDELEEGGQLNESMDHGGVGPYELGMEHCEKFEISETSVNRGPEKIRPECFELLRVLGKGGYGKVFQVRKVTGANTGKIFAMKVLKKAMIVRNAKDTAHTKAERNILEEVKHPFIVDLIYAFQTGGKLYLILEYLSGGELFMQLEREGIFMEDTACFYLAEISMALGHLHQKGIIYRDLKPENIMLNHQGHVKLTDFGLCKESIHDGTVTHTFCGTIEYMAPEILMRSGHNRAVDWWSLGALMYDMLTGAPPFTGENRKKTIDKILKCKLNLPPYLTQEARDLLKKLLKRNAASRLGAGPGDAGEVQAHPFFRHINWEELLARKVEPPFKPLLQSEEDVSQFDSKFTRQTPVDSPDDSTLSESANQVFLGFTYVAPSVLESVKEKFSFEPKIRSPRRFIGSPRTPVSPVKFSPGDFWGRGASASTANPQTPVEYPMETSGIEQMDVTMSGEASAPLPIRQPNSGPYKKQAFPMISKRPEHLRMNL
Chain of UniProt O75747 (whole entry, looked up): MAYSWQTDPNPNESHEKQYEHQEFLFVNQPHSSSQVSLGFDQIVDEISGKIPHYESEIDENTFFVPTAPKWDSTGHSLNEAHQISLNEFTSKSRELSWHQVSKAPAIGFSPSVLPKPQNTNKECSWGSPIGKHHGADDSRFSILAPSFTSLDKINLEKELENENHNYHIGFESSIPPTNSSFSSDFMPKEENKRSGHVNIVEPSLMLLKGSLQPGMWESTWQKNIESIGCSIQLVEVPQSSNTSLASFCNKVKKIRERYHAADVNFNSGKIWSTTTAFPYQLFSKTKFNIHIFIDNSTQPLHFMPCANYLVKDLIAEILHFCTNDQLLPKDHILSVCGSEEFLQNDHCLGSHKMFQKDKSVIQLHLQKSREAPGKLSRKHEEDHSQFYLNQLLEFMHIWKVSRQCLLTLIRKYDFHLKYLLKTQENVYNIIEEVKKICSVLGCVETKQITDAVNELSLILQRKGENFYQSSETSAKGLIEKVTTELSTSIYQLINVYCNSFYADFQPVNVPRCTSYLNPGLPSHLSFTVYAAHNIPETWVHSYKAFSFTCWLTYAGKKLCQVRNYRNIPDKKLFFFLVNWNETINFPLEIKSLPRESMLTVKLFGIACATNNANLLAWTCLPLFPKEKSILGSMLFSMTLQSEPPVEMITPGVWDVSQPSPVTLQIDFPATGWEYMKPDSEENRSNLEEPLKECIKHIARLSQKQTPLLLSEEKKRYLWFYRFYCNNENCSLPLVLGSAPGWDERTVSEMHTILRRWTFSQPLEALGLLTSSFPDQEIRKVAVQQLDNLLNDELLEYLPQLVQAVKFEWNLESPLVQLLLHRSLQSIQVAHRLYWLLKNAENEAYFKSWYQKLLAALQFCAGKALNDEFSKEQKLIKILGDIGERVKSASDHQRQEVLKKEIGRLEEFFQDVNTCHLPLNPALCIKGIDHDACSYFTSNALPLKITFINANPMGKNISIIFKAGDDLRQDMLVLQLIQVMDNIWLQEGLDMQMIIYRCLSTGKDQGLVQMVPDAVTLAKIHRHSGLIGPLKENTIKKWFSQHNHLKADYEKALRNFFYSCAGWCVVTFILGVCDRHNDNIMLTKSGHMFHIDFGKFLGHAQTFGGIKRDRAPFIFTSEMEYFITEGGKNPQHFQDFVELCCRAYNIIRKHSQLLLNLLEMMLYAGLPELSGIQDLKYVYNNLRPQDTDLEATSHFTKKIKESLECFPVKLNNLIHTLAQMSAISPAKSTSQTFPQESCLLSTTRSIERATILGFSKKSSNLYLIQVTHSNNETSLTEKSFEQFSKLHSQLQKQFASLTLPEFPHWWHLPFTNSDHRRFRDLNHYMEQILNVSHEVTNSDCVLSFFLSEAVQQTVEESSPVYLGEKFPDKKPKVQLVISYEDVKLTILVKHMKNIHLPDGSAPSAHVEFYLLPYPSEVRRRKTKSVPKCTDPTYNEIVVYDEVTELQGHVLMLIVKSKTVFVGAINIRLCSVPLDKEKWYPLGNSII
Chain of UniProt P07332 (whole entry, looked up): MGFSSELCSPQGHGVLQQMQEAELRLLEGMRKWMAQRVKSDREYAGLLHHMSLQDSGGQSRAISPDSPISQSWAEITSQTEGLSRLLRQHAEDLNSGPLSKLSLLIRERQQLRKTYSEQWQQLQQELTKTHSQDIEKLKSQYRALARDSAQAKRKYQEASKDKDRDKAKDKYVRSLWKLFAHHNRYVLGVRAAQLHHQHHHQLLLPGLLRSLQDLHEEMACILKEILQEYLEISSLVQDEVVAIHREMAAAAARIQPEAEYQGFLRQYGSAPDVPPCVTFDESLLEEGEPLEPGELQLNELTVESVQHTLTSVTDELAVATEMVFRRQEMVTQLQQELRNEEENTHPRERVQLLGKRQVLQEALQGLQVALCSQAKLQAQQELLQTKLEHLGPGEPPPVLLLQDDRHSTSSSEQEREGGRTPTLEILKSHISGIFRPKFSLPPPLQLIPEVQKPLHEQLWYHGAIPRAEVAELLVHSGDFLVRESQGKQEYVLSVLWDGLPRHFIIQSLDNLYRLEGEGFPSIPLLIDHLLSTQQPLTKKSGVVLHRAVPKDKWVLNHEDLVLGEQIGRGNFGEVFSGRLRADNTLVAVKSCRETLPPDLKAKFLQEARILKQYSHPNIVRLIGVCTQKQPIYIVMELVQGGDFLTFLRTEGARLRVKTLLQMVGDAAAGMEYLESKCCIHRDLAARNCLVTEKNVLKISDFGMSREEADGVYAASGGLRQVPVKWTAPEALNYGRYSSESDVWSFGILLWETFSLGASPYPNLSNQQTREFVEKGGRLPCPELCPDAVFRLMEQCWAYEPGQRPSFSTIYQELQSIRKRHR
Chain of UniProt Q96RG2 (whole entry, looked up): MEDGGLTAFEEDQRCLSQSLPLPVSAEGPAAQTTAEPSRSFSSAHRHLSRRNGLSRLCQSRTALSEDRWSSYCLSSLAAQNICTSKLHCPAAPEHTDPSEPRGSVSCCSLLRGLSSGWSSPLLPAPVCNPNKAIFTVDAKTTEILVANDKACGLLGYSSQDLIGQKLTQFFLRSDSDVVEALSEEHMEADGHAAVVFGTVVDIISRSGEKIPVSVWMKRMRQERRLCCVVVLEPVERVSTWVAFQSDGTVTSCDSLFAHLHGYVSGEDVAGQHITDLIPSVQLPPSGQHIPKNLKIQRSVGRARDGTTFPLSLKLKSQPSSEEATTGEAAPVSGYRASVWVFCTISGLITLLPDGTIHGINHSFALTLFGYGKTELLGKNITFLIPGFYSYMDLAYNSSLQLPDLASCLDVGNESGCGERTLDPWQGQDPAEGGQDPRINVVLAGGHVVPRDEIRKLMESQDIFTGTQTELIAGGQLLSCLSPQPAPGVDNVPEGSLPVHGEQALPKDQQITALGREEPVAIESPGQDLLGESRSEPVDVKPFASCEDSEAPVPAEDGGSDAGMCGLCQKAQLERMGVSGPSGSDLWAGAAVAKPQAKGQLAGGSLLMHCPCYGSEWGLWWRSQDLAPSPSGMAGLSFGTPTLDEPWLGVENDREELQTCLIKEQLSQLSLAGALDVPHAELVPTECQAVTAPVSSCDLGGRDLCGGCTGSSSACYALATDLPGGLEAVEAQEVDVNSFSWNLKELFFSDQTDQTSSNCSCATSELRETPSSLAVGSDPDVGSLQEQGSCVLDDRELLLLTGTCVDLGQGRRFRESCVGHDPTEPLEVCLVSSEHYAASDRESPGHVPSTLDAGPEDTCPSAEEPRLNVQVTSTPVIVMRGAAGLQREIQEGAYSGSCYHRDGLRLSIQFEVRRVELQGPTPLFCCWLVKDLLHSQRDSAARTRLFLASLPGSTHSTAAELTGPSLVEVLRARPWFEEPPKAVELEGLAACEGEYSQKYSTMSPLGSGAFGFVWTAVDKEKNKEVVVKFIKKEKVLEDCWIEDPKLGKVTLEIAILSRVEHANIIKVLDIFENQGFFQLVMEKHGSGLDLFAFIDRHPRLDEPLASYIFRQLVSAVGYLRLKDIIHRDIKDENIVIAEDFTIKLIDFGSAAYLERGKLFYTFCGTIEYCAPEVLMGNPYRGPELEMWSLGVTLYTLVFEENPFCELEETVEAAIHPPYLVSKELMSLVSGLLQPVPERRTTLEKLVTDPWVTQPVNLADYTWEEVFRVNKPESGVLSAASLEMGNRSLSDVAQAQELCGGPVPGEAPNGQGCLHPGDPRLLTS

SMILES | target | test | conditions | how to read | remaining activity [%]
COc1cc(F)ccc1-c1ncnc(Nc2cccc(C[S@](C)(=N)=O)c2)n1 | PTK6 | kinase activity | 10 µM, with: 10 µM ATP | – | 83
Cc1cc(Nc2cc(N3CCN(C)CC3)nc(Sc3ccc(NC(=O)C4CC4)cc3)n2)[nH]n1 | PIM1 (Homo sapiens, UniProt P11309) | kinase activity, KinaseProfiler | 0.03 µM, species human | baseline: control | 89
C=CC(=O)N1CCC[C@@H](n2nc(-c3ccc(Oc4ccccc4)cc3)c3c(N)ncnc32)C1 | FES (Homo sapiens, UniProt P07332) | – | 10 µM | – | 13.4
COc1ccc(F)cc1C(=O)NCc1ccc(-c2nn([C@@H](C)C(F)(F)F)c(N)c2C(N)=O)cc1 | PTK6 | – | 1000 nM, with: ATP at Km | – | 10.3 ± 0.3
CNc1ncc2c(/C=C/C(=O)N3CCC(OC)CC3)nn(Cc3cccc(C(F)(F)F)c3)c2n1 | PASK (Homo sapiens, UniProt Q96RG2) | kinase activity, inhibitor | 1 µM | baseline: untreated control | 97
COc1cc(-c2cncc3c2CN(C)Cc2cc(N4CCNCC4)ccc2-3)cc(OC)c1OC | RPS6KB1 (Homo sapiens, UniProt P23443) | kinase activity | 1 µM, human enzyme, with: ATP 10 µM | baseline: DMSO control | 102
O=C(O)c1ccc(Nc2ncc3c(n2)-c2ccc(Cl)cc2C(c2c(F)cccc2F)=NC3)cc1 | human TSSK1(h) | kinase activity | 1 µM | – | 107
O=C(NC1CCC1)c1ccc2nc(-c3cccc(NS(=O)(=O)NCCN4CCCCC4)c3)cn2c1 | PIK3C2G (Homo sapiens, UniProt O75747) | enzyme activity | 10 µM | – | 75

Some of these lines once more:
SMILES | target | test | conditions | how to read | remaining activity [%]
COc1ccc(F)cc1C(=O)NCc1ccc(-c2nn([C@@H](C)C(F)(F)F)c(N)c2C(N)=O)cc1 | PTK6 | – | 1000 nM, with: ATP at Km | – | 10.3 ± 0.3
